Assay results collected from several papers.
Protocols differ between the studies behind these lines. Several values in a cell are separate wells, animals, samples, runs or records. ± marks the error that the study gave.

Compound | assay | system | setting | scale | endpoint | result
[11CH3]c1ccc2nc(C3CCC3)n(-c3ccc4[nH]ncc4c3)c2n1 | extrapolated from mouse | standard human, Urinary bladder wall | – | – | absorbed dose | 2.7 µSv/MBq
COC(=O)c1ccc2c(c1)NC(=O)/C2=C(\Nc1ccc2c(c1)CCN2C(=O)CN1CCOCC1)c1ccccc1 | – | Caco-2 | 20 µM, 2 h | – | efflux ratio | ~1.1
CC(=O)N[C@@H](CC(N)=O)C(=O)NCC(=O)N[C@@H](C)C(=O)N[C@@H](C)C(N)=O | 1H NMR | sodium phosphate buffer 50 mM | pH 7.4, 28 °C | – | half-life of Asn form | 148 h
C[C@H](NC(=O)c1ccc2c(c1)C(=O)OC21c2ccc(O)cc2Oc2cc(O)ccc21)C(=O)N[C@@H](CCCCN)C(=O)N[C@@H](C)C(=O)N[C@@H](CCCCN)C(=O)N[C@@H](C)C(=O)N[C@@H](CCCCN)C(=O)N[C@@H](C)C(=O)N[C@@H](CCCCN)C(=O)N[C@@H](C)C(=O)N[C@@H](CCCCN)C(=O)N[C@@H](C)C(=O)N[C@@H](CCCCN)C(=O)N[C@@H](C)C(=O)N[C@@H](CCCCN)C(=O)N[C@@H](C)C(=O)N[C@@H](CC(N)=O)C(=O)N[C@@H](C)C(=O)N[C@@H](CC(N)=O)C(=O)N[C@@H](C)C(=O)N[C@@H](CC(N)=O)C(=O)O | – | bovine healthy cartilage | 24 h, 10 x PBS | – | desorbed fraction | 100%
N=C(N)NCCC[C@@H]1NC(=O)[C@H](Cc2c[nH]c3ccccc23)NC(=O)[C@@H](CC2CCCCC2)NC(=O)[C@@H]2CCCN2C(=O)[C@@H](NC(=O)CCc2ccccc2)CCCNC1=O | – | C57BL/6J mice, plasma | intraperitoneal, 1 mg/kg, two-compartment model | – | redistribution rate constant k21 | 2 h⁻¹
CN[C@@H]1[C@H](O)[C@H](NC)[C@H]2O[C@]3(O)[C@H](O[C@@H]2[C@H]1O)O[C@H](C)C[C@@]3(O)CNCc1ccc(OC(F)(F)F)cc1 | – | rat | iv, 10 mg/kg | – | volume of distribution | 1.13 L/kg
CC(C)c1cnc(-c2cc(Cl)ccc2F)cc1Nc1ccncc1C(=O)NC(CO)CO | – | human patients | oral, dose not given, worst grade 1 | – | patients with any TRAE | 23.8%
O=C(CCc1ccc(CNC(C(=O)O)C2CCCCC2)cn1)NO (stereo not shown) | – | human, plasma | oral, 40 mg once daily, median | relative to: day 7 over day 1 | accumulation ratio Cmax | 1.12
CC[C@H](C)[C@H](NC(=O)[C@H](Cc1ccccc1)NC(=O)[C@H](CC(=O)O)NC(=O)[C@H](CCCNC(=N)N)NC(=O)[C@H](Cc1ccccc1)NC(=O)[C@H](Cc1ccccc1)NC(=O)[C@H](CCCN)NC(=O)[C@H](CO)NC(=O)[C@H](CC(C)C)NC(=O)[C@H](CCCNC(=N)N)NC(=O)[C@H](CCSC)NC(=O)[C@H](C)N)C(=O)N[C@@H](CCCN)C(=O)N[C@@H](CCC(N)=O)C(=O)N[C@@H](CCCNC(=N)N)C(=O)N[C@@H](CCCCN)C(=O)N[C@@H](CCCCN)C(=O)O | circular dichroism | 20% TFE in PBS | 200 µM, pH 7.4, 25 °C | – | helicity | 18.1%
NC(=S)N/N=C/c1ccccc1O | cyclic voltammetry | anhydrous DMF | Cu2+ complex, glassy carbon electrode | – | peak potential separation | 0.132 mV
Cc1ccc(-c2ccc(-c3cc4sccc4o3)cn2)nc1 | TCSPC | DMSO | – | – | fluorescence lifetime | 1.51 ns
Cn1c(=O)oc2ccc(-c3ccc(CC(C#N)NC(=O)C4CNCCCO4)c(F)c3)cc21 (stereo not shown) | item: lymphadenopathy | human volunteers | oral, dose not given | – | treatment-emergent adverse event incidence | 7.4%
COC(=O)c1ccc(-c2cn(Cc3cc(Cl)ccc3O[11CH3])nn2)cc1 | PET two-tissue compartment model | rhesus monkey, basal ganglia | dose not given | – | distribution volume (VT) | 0.59 mL/cm³
C[C@H](NC(=O)COC(=O)[C@H](C)NC(=O)CO)C(=O)O | – | water | pH 6, 65 °C | – | depolymerization half-life | 0.17 h
Cc1cc(O)cc(O)c1C(=O)c1c2c3c(c(O)cc(C)c3oc1=O)C(=O)c1c(O)cc(O)cc1-2 | – | Caco-2 monolayer | 400 µM, 3 h, pH 7.4 | relative to: AP to BL over BL to AP | efflux ratio | 72.5
Cc1cc2c(cc1C1(c3ncc(C(=O)O)cn3)CC1)C(C)(C)CCC2(C)C | – | Sprague-Dawley rat, male | oral, 100 mg/kg, 3 h, sesame oil vehicle | – | blood cholesterol | 80 ± 10.8 mg/dL
CCCCCCCCCCCCCCCC(=O)N[C@@H](CCCCN)C(=O)N[C@@H](CCCCN)C(=O)N[C@@H](CO)C(=O)N[C@@H](CCCNC(=N)N)C(=O)N[C@@H](C)C(=O)N[C@@H](CC(C)C)C(=O)N[C@@H](Cc1ccccc1)C(N)=O | – | cynomolgus monkey, female | 10 mg/kg, day 1 | – | prothrombin time | 11 ± 0.3 s
CC(C)[C@@H]1NC(=O)[C@@H](NC(=O)[C@H](Cc2ccc(O)cc2)NC(=O)[C@@H]2CCCN2C(=O)[C@H](C)N)CSSC[C@@H](C(=O)O)NC(=O)[C@H](CO)NC(=O)[C@H](Cc2c[nH]c3ccccc23)NC(=O)[C@H](CO)NC(=O)CNC(=O)[C@H](CCCNC(=N)N)NC(=O)[C@H](Cc2ccc(O)cc2)NC1=O | residual EphA4 binding inhibition | PC-3 conditioned medium | 200 µM, 37 °C | – | half-life | 8 to 12 h
CCC1(CC)C[C@@H](NC(=O)Nc2cccc3c(C)nccc23)c2cc(F)ccc2O1 | – | rat, resiniferatoxin-desensitized | intraperitoneal, 3 mg/kg, ambient 27 °C | – | body temperature | decreased

Compound | assay | system | setting | scale | endpoint | result
C[C@@H](O)[C@H](NC(=O)[C@@H](NC(=O)[C@@H](N)CCCCN)[C@@H](C)O)C(=O)N[C@@H](CCCCN)C(=O)N[C@@H](CO)C(=O)O | – | hairless mouse skin | 50 µg/cm^2, 24 h | – | amount retained in dermis | not detected
CC(C)(Sc1ccncc1-c1ccc(C#N)c2ccccc12)C(=O)OC1OC(C(=O)O)C(O)C(O)C1O (stereo not shown) | – | adult men, plasma | oral, 15 mg verinurad, mild renal impairment | relative to: normal renal function | Cmax increase | 29%
CCCC(CCC)NC(=O)c1ccc(OC2OC(C(=O)O)C(O)C(O)C2O)c(OC)c1 (stereo not shown) | – | male Sprague-Dawley rat, plasma | oral, 20 mg/kg of parent drug | – | Tmax | 4.5 h
O=C([O-])CN1CCN(CC(=O)[O-])CCN(CC(=O)NCC2CCC(C(=O)NC(Cc3ccc4ccccc4c3)C(=O)NCCCCC(NC(=O)NC(CCC(=O)O)C(=O)O)C(=O)O)CC2)CCN(CC(=O)[O-])CC1.[44Sc+3] (stereo not shown) | PET/CT dosimetry, OLINDA/EXM | human, liver | – | – | organ absorbed dose | 0.03 mSv/MBq and 0.085 mSv/MBq and 0.097 mSv/MBq
CC[C@H](C)[C@@H]1NC(=O)[C@H](Cc2ccccc2)NC(=O)[C@@H](NC(=O)[C@H](CCCNC(=N)N)NC(=O)[C@H](Cc2ccccc2)NC(=O)[C@H](Cc2ccccc2)NC(=O)[C@H](CCCCN)NC(=O)[C@H](CO)NC(=O)[C@H](CC(C)C)NC(=O)[C@H](CCCNC(=N)N)NC(=O)[C@H](CCSC)NC(=O)[C@H](C)N)CCCNC(=O)NC[C@@H](C(=O)N[C@@H](CCCNC(=N)N)C(=O)N[C@@H](CCCCN)C(=O)N[C@@H](CCCCN)C(=O)O)NC(=O)[C@H](CC(C)C)NC1=O | circular dichroism | 20% TFE in PBS | 200 µM, pH 7.4, 25 °C | – | helicity | 19.8%
COC(=O)Cn1c2ccc([N+](=O)[O-])cc2c(=O)n1Cc1ccccc1 | resazurin | peritoneal macrophages, BALB/c mice | 48 h, 10% FBS | – | CC50 | 171 ± 22.1 µM
CN1CCC[C@]1(C)/C=C/S(=O)(=O)NC(=O)Nc1c2c(cc3c1CCC3)CCC2 | – | human, plasma | oral, 12.5 mg twice daily, 14 days, multiple ascending dose | relative to: day 14 over day 1 | accumulation ratio AUC(0-tau) | 1.6
O=C1/C(=C/c2ccc(B(O)O)cc2)CC/C1=C\c1ccc(B(O)O)cc1 | – | water | – | – | zeta potential | -15.3 mV
O=C(O)/C=C/c1cccc(S(=O)(=O)Nc2ccccc2)c1 | – | human, normal liver function, plasma | intravenous, 400 mg/m^2 belinostat, cycle 1 day -7, geometric mean | relative to: metabolite over belinostat | Cmax metabolic ratio | 0.0752
CC(C)[C@H](NC(=O)[C@@H]1CCCN1C(=O)[C@H](CCCNC(=N)N)NC(=O)[C@H](CS)NC(=O)[C@H](Cc1c[nH]c2ccccc12)NC(=O)[C@H](CCCNC(=N)N)NC(=O)[C@@H](Cc1ccccc1)NC(=O)[C@H](Cc1c[nH]cn1)NC(=O)[C@H](CCC(=O)O)NC(=O)[C@H](CS)NC(=O)[C@H](CS)NC(=O)[C@@H]1CC(=O)N[C@@H](CCCNC(=N)N)C(=O)NCC(=O)N[C@@H](CC(=O)O)C(=O)N[C@H](Cc2ccc(O)cc2)C(=O)N1)C(N)=O [technetium-99m labelled] | – | C57 mouse, female, B16/F1 melanoma | intravenous, 0.037 MBq, 0.5 h | relative to: tumour over muscle | tumour to tissue ratio | 9.65
CC(C)[C@H](NC(=O)CNC(=O)[C@H](CCC(N)=O)NC(=O)[C@H](C)N)C(=O)O | – | human, both sexes, plasma | intravenous infusion, 90 mg/kg/h, 2 h infusion, geometric mean | – | half-life | 0.35 h
CN(C)C(CNC(=O)Nc1cc(C(F)(F)F)ccc1N1CCOCC1)c1ccncc1 (stereo not shown) | – | mouse, C57BL/6J, urine | subcutaneous minipump infusion, 25 mg/kg/day, 4 days | – | urine concentration | 301 ± 55.3 ng/mL
Oc1ccc2ccccc2c1/N=N/c1ccc(/N=N/c2ccccc2)cc1 | – | extracted rat blood QC samples | 0.5 µg/L, 4 h, room temperature, short-term stability | – | measured concentration | 0.467 µg/L
C[C@H]1Nc2nc(=O)c3[nH]ccc3n2Cc2ccc(Cl)cc21 | – | dog, both sexes, plasma | oral, 100 mg/kg/day | relative to: dog over human 15 mg | exposure ratio | 8.6
O=C(O)[C@H]1O[C@@H](O[C@H](C[C@H]2c3c(F)cccc3-c3cncn32)[C@H]2CC[C@H](O)CC2)[C@H](O)[C@@H](O)[C@@H]1O | – | human, plasma | oral, 200 mg, 0 to 48 h pooled | – | AUC(0-48 h) | 36.4 µM·h
C[Si](C)(C)C[C@@H](CN)CC(=O)O | – | male Sprague-Dawley rat, plasma | oral, 30 mg/kg, 1 h, single dose | – | concentration | 50.3 µM
O=C(O)C1OC(OC2C(COS(=O)(=O)O)OC(OC3C(C(=O)O)OC(OC4C(COS(=O)(=O)O)OC(OC5C(C(=O)O)OC(OC6C(COS(=O)(=O)O)OC(OC7C(C(=O)O)OC(OC8C(COS(=O)(=O)O)OC(OC9C(C(=O)O)OC(OC%10C(COS(=O)(=O)O)OC(OC%11C(C(=O)O)OC(Oc%12ccc([N+](=O)[O-])cc%12)C(O)C%11O)C(NS(=O)(=O)O)C%10O)C(OS(=O)(=O)O)C9O)C(NS(=O)(=O)O)C8O)C(OS(=O)(=O)O)C7O)C(NS(=O)(=O)O)C6O)C(OS(=O)(=O)O)C5O)C(NS(=O)(=O)O)C4O)C(OS(=O)(=O)O)C3O)C(NS(=O)(=O)O)C2OS(=O)(=O)O)C(O)C(O)C1OC1OC(COS(=O)(=O)O)C(O)C(O)C1NS(=O)(=O)O (stereo not shown) | – | rat, spleen | intravenous, 3600 µg/kg per day, 7 days, day 8 | – | organ-to-body weight ratio | 0.25 ± 0.02
COc1ccc(/C=C/C2=[N+]3C(=C(COC(C)=O)c4c(C)cc(/C=C/c5ccc(OC)cc5)n4[B-]3(F)F)C(C)=C2)cc1 | – | DMSO/methanol 1:1 | 1 h, added: 645 nm light, 9.00 J/cm2 | – | photostability | unstable

For quick reference, copied from above:
Compound | assay | system | setting | scale | endpoint | result
C[Si](C)(C)C[C@@H](CN)CC(=O)O | – | male Sprague-Dawley rat, plasma | oral, 30 mg/kg, 1 h, single dose | – | concentration | 50.3 µM
COC(=O)c1ccc(-c2cn(Cc3cc(Cl)ccc3O[11CH3])nn2)cc1 | PET two-tissue compartment model | rhesus monkey, basal ganglia | dose not given | – | distribution volume (VT) | 0.59 mL/cm³
Cc1ccc(-c2ccc(-c3cc4sccc4o3)cn2)nc1 | TCSPC | DMSO | – | – | fluorescence lifetime | 1.51 ns
C[C@H]1Nc2nc(=O)c3[nH]ccc3n2Cc2ccc(Cl)cc21 | – | dog, both sexes, plasma | oral, 100 mg/kg/day | relative to: dog over human 15 mg | exposure ratio | 8.6
N=C(N)NCCC[C@@H]1NC(=O)[C@H](Cc2c[nH]c3ccccc23)NC(=O)[C@@H](CC2CCCCC2)NC(=O)[C@@H]2CCCN2C(=O)[C@@H](NC(=O)CCc2ccccc2)CCCNC1=O | – | C57BL/6J mice, plasma | intraperitoneal, 1 mg/kg, two-compartment model | – | redistribution rate constant k21 | 2 h⁻¹
